Results from different studies.
Protocols differ between the studies behind these lines.
Organism: Escherichia coli

SMILES | assay | system | setting | IC50 [µM]
C=C(C)C(=O)NCCCCOCc1cn(CCCCNC(=O)C(=C)C)n[n+]1C | growth, turbidity OD600 | ΔtolC | 24 h | > 100
CCCCCCCCCCCCCC(=O)N[C@@H](Cc1c[nH]c2ccccc12)C(=O)N[C@@H](Cc1c[nH]c2ccccc12)C(=O)N[C@H](C(=O)N[C@@H](Cc1ccccc1)C(=O)N[C@@H](CCCNC(=N)N)C(=O)N[C@H](C(=O)N[C@H](C(=O)N[C@@H](Cc1ccc(O)cc1)C(=O)N1CCC[C@@H]1C(=O)N[C@@H](CCCNC(=N)N)C(=O)N[C@H](C(=O)N[C@H](C(=O)N[C@@H](Cc1ccc(O)cc1)C(=O)N[C@@H](CCCNC(=N)N)C(=O)N[C@@H](CCCNC(=N)N)C(=O)N[C@H](C(=O)N[C@@H](CCCNC(=N)N)C(=O)N[C@@H](Cc1c[nH]c2ccccc12)C(=O)N[C@H](C(=O)NCC(=O)N1CCC[C@H]1C(=O)N[C@@H](CCCCN)C(=O)N[C@@H](CCCCN)C(N)=O)[C@@H](C)O)C(C)C)C(C)C)[C@@H](C)CC)C(C)C)C(C)C)C(C)C | bacterial growth | DH5α | 50% growth inhibition | > 100
C#CCCCC(=O)N[C@H]1CCOC1=O | LuxR reporter, antagonist | DH5α sensor strain | with: OHHL 200 nM | 1 to 4
CC(C)C[C@@H]1NC(=O)[C@H](CCCNC(=N)N)NC(=O)[C@H](CCCNC(=N)N)NC(=O)[C@@H](NC(=O)[C@@H](N)CCC(=O)O)CSSC[C@@H](C(=O)N[C@@H](CCCNC(=N)N)C(=O)NCC(=O)N[C@@H](CCCNC(=N)N)C(N)=O)NC(=O)[C@H](Cc2ccc(O)cc2)NC(=O)[C@H]([C@@H](C)O)NC(=O)[C@H](C(C)C)NC(=O)[C@@H]2CSSC[C@H](NC1=O)C(=O)N[C@@H](Cc1ccc(O)cc1)C(=O)N[C@@H](CCCCN)C(=O)N[C@@H](CCC(N)=O)C(=O)N[C@@H](CCCNC(=N)N)C(=O)N2 | bacterial growth | DH5α | 50% growth inhibition | 14.9
CC[C@H](C)[C@H](NC(=O)[C@H](Cc1c[nH]c2ccccc12)NC(=O)c1ccccc1)C(=O)N[C@H](C(=O)N[C@@H](Cc1ccc(O)cc1)C(=O)N[C@@H](CCCCN)C(=O)N[C@@H](Cc1c[nH]c2ccccc12)C(=O)N[C@H](CCCNC(=N)N)C(=O)N[C@@H](CCCNC(=N)N)C(=O)N[C@@H](CCCCN)C(=O)N[C@H](C(=O)N[C@H](C(=O)N[C@@H](CCCNC(=N)N)C(=O)N[C@@H](Cc1ccc(O)cc1)C(=O)N[C@@H](Cc1c[nH]c2ccccc12)C(=O)N[C@H](C(=O)NCC(=O)N[C@@H](CCCCN)C(=O)N[C@@H](CCCNC(=N)N)C(N)=O)[C@@H](C)O)C(C)C)C(C)C)C(C)C | growth | DH5α | 16 h, 37 °C | 40
C=CC(=O)NCCCCCCOCc1cn(CCCCCCNC(=O)C=C)nn1 | growth, turbidity OD600 | ΔtolC | 24 h | > 100
C[C@@H](O)[C@H](NC(=O)[C@H](Cc1c[nH]c2ccccc12)NC(=O)[C@H](CCCNC(=N)N)NC(=O)[C@H](Cc1c[nH]c2ccccc12)NC(=O)[C@H](CCCNC(=N)N)NC(=O)CNC(=O)[C@@H](NC(=O)[C@H](CCCNC(=N)N)NC(=O)[C@H](CCCNC(=N)N)NC(=O)[C@H](CC(N)=O)NC(=O)[C@H](Cc1c[nH]c2ccccc12)NC(=O)[C@H](CCCNC(=N)N)NC(=O)[C@H](Cc1c[nH]c2ccccc12)NC(=O)c1ccccc1)[C@@H](C)O)C(=O)NCC(=O)N1CCC[C@H]1C(N)=O | growth | DH5α | 16 h, 37 °C | 39
CC[C@H](C)[C@@H]1NC(=O)CNC(=O)[C@H](CCCNC(=N)N)NC(=O)[C@H](Cc2ccc(O)cc2)NC(=O)[C@@H]2CSSC[C@H](NC1=O)C(=O)N[C@@H](Cc1ccc(O)cc1)C(=O)N[C@@H](CCCNC(=N)N)C(=O)N[C@@H](CCCNC(=N)N)C(=O)N[C@H](C(=O)N[C@@H](CCCNC(=N)N)C(N)=O)CSSC[C@H](NC(=O)[C@H](Cc1c[nH]c3ccccc13)NC(=O)[C@@H](N)CCCCN)C(=O)N[C@@H](Cc1ccccc1)C(=O)N[C@@H](CCCNC(=N)N)C(=O)N[C@@H](C(C)C)C(=O)N2 | bacterial growth | DH5α | 50% growth inhibition | 2.03
C=CS(=O)(=O)NCCCCCCOCc1cn(CCCCCCNS(=O)(=O)C=C)n[n+]1C | growth, turbidity OD600 | ΔtolC | 24 h | > 100
CC[C@H](C)[C@H](NC(=O)[C@H](Cc1c[nH]c2ccccc12)NC(=O)c1ccccc1)C(=O)N[C@H](C(=O)N[C@@H](Cc1ccc(O)cc1)C(=O)N[C@@H](CCCCN)C(=O)N[C@@H](Cc1c[nH]c2ccccc12)C(=O)N1CCC[C@@H]1C(=O)N[C@@H](CCCNC(=N)N)C(=O)N[C@@H](CCCCN)C(=O)N[C@H](C(=O)N[C@H](C(=O)N[C@@H](CCCNC(=N)N)C(=O)N[C@@H](Cc1ccc(O)cc1)C(=O)N[C@@H](Cc1c[nH]c2ccccc12)C(=O)N[C@H](C(=O)NCC(=O)N[C@@H](CCCCN)C(=O)N[C@@H](CCCNC(=N)N)C(N)=O)[C@@H](C)O)C(C)C)C(C)C)C(C)C | growth | DH5α | 16 h, 37 °C | 44

A few entries again:
SMILES | assay | system | setting | IC50 [µM]
C#CCCCC(=O)N[C@H]1CCOC1=O | LuxR reporter, antagonist | DH5α sensor strain | with: OHHL 200 nM | 1 to 4
